Experimental data of several laboratories.
Lines come from different studies, so protocols differ. “And” joins repeats or separate records; there may be more than shown. Numbers after ± are the reported error. In brackets after ≈: the same amount, converted by molar mass.

For `CCC(C(=O)Nc1ccc(C(N)=O)c(F)c1)n1cc(OC)c(-c2cc(Cl)ccc2-n2cc(C(F)(F)F)nn2)cc1=O` (stereo not shown), “mild drug-related adverse events” read 0% (healthy male humans; 50 mg, maximum intensity, together with: antacid).
For `O=C([O-])CN1CCN(CC(=O)[O-])CCN(CC(=O)NCC2CCC(C(=O)NC(Cc3ccc4ccccc4c3)C(=O)NCCCCC(NC(=O)NC(CCC(=O)O)C(=O)O)C(=O)O)CC2)CCN(CC(=O)[O-])CC1.[68Ga+3]` (stereo not shown), “mean tumour uptake” read 5.4 ± 0.22 %ID/g (micro-PET/CT; mouse 22Rv1 xenograft, tumour; 1 h post-injection).
`CCN(CC)c1ccc2c(c1)O[B-]1(c3ccccc3)OC(=O)C(c3ccccc3)=N[N+]1=C2C` (stereo not shown) — result for “molar absorption coefficient”: 50000 M⁻¹ cm⁻¹ (toluene).
For `O=C(Nc1cnccc1-c1ccc([18F])cc1)c1ccnc(NC(=O)C2CC2)c1`, the SUV was 0.1 (ex vivo gamma counting; GSK-3β transgenic mice, late-stage, cortex; intravenous, 1.26 MBq/animal, 120 min, mean, no P-gp inhibitor).
`CCCCN1C(=O)c2cccc3c(NCCCCCCN4CCOCC4)ccc(c23)C1=O` — result for “molar extinction coefficient”: 12100 M⁻¹ cm⁻¹ (toluene).
`NCCCCCC(=O)N(CCC(=O)O)CC(=O)N(CCC(=O)O)CC(=O)N(CCC(=O)O)CC(=O)N(CCC(=O)O)CC(=O)N(CCC(=O)O)CC(=O)N(CCC(=O)O)CC(=O)N(CCc1ccc(Cl)cc1)CC(=O)N(CCc1ccc(Cl)cc1)CC(=O)N(CCc1ccc(Cl)cc1)CC(=O)N(CCc1ccc(Cl)cc1)CC(=O)N(CCc1ccc(Cl)cc1)CC(=O)N(CCc1ccc(Cl)cc1)CC(N)=O` — result for “equilibrium concentration (Ce)”: 0.16 µM (in situ AFM; HCl solution on mica; pH 2.8, room temperature, 2D phase solubility).
For `CCCCN1C(=O)c2cccc3c(NCCCCN4CCOCC4)ccc(c23)C1=O`, “molar extinction coefficient” read 8600 M⁻¹ cm⁻¹ (acetonitrile).
For `Cc1nc(N)nc2c1C(=O)N[C@@H](c1ccc(F)cc1-c1cccc(O[11CH3])n1)C2`, the tracer uptake was 5.3 ± 3 %ID (ex vivo biodistribution; healthy mice, blood; 60 min post-injection, baseline, vehicle pre-treatment).
With `CC(C)[C@H](NC(=O)[C@H](Cc1c[nH]c2ccccc12)NC(=O)[C@H](CCCNC(=N)N)NC(=O)[C@H](CCCNC(=N)N)NC(=O)[C@@H](NC(=O)[C@@H](NC(=O)[C@H](CCCNC(=N)N)NC(=O)[C@@H](NC(=O)[C@@H](NC(=O)[C@H](CCCNC(=N)N)NC(=O)[C@H](CCCNC(=N)N)NC(=O)[C@@H](NC(=O)[C@H](Cc1c[nH]c2ccccc12)NC(=O)[C@H](CCCNC(=N)N)NC(=O)[C@H](CCCNC(=N)N)NC(=O)[C@@H](NC(=O)[C@H](CCCNC(=N)N)NC(=O)[C@H](CCCNC(=N)N)NC(=O)[C@@H](NC(=O)[C@H](Cc1c[nH]c2ccccc12)NC(=O)[C@H](CCCNC(=N)N)NC(=O)[C@@H](N)CCCNC(=N)N)C(C)C)C(C)C)C(C)C)C(C)C)C(C)C)C(C)C)C(C)C)C(=O)N[C@@H](CCCNC(=N)N)C(=O)N[C@@H](CCCNC(=N)N)C(=O)O` the glucose was 160 mg/dL (CD1 mouse, plasma; intravenous, 15 mg/kg, 16 h, [14C]-labelled compound).
With `O=C(O)CCCOc1ccc([18F])cc1-c1cc(-c2ccccc2C(F)(F)F)n(-c2ccccc2)n1` the absorbed dose was 11.2 µGy/MBq (OLINDA/EXM from mouse data; human adults, uterus).
For `CCC(CC)CNC(=N)NC(=N)NCCCCCCNC(=N)NC(=N)NCC(CC)CC`, the microsomal CLint was 0.73 µL/min/mg (metabolic stability; dog, liver microsomes; 2 µM).
With `COc1ccc2c(c1)CCn1c[n+]3c(c1-2)-c1ccc(OC)cc1CC3` the haemoglobin was 13.9 ± 0.16 g/dL (female NSG mice, blood; 6 mg/kg, day 20, 5 days per week).
With `CC[C@H](C)[C@@H]1NC(=O)[C@H](Cc2ccc(O)cc2)NC(=O)CCCSC[C@@H](C(=O)N(CC(=O)N[C@@H](CC(C)C)C(=O)NCC(N)=O)Cc2ccc(F)cc2)NC(=O)[C@H](CC(N)=O)NC(=O)[C@H](CCC(N)=O)NC1=O` the AUC(0-t) was 0.018 ng·h/mL (healthy human, plasma; intranasal, 50 µg every 3 h, after first dose).
`Cc1cc(C)n(CCN(CCN)CCCCCCNC(=O)[C@@H](N)Cc2c[nH]cn2)n1.[99Tc+].[C-]#[O+].[C-]#[O+].[C-]#[O+]` gave an intact radiocomplex of over 90% (RP-HPLC; BALB/c nude mice, A549 xenograft, urine and blood; 4 h).
For `CN(O)C(=O)CCC(=O)NCCCN(CCCCN(CCCNC(=O)CCC(=O)N(C)O)C(=O)CCC(=O)N(C)O)C(=O)CCC(=O)N(C)O.[89Zr]`, the tracer uptake was 0.03 %ID/g (mouse, spleen; 24 h).
For `O=C1CCC(N2Cc3cc(C(=O)O)c(F)cc3C2=O)C(=O)N1` (stereo not shown), the plasma concentration was 0.0052 ± 0.004 µg/mL (cynomolgus monkey, male; oral, 0.3 mg/kg parent drug, 4 h).
The Cmax of `CC[C@H](C)[C@H](NC(=O)[C@H](Cc1ccc(O)cc1)NC(=O)[C@@H](NC(=O)[C@H](CCCNC(=N)N)NC(=O)[C@@H](N)CC(=O)O)C(C)C)C(=O)N[C@@H](Cc1c[nH]cn1)C(=O)N1CCC[C@H]1C(=O)O` is reported as 0.0256 µg/mL (LC-MS/MS; Sprague-Dawley rats, both sexes, plasma; subcutaneous, 10 mg/kg/day, day 0).
`CCCCN1C(=O)c2cccc3c(NCCCCCCCCN4CCOCC4)ccc(c23)C1=O`: “molar extinction coefficient” 11700 M⁻¹ cm⁻¹ (methanol).
`O=C(Nc1cnccc1-c1ccc([18F])nc1)c1ccnc(NC(=O)C2CC2)c1` has an SUV of 5.05 (mice, transgenic, GSK-3β, early-stage, liver; intravenous, dose not given, 120 min).
`CCC1C=C(C)C(O)C(C)CC(OC)C2OC(O)(C(=O)C(=O)N3CCCCC3C(=O)OC(C(C)=CC3CCC(O)C(OC)C3)C(C)C(O)CC1=O)C(C)CC2OC` (stereo not shown): blood concentration “not detected” (mouse C57BL/6; topical, dose not given, 6 h).
`Fc1ccc(/C=N/Nc2nnc(N/N=C/c3ccc(F)cc3)c3ccccc23)cc1` gave a haemolysis of 8.4% (haemolysis; human; 10 mM, 45 min).
`COCC1CN(C2CCN(c3cc(OC)c(Nc4ncc(Br)c(Nc5ccc6c(c5P(C)(C)=O)OCCO6)n4)cc3C)CC2)C1` gave an adverse events of 0% (first-in-human trial; human; oral, 150 mg once daily; treatment-related leading to dose reduction).
With `CCCCN1C(=O)c2cccc3c(NCCCCCN4CCOCC4)ccc(c23)C1=O` the fluorescence lifetime was 8.4 ns (toluene).
`Cc1cc(-c2ccc(C(=O)[C@@H]3CCCC[C@H]3C(=O)Nc3cnn4c3C(=O)NCC4)cc2)[nH]n1`: “recovery of radioactivity per interval” 0.31% (human, faeces; oral, 200 mg, 264-288 h, discharged subjects excluded; reference: dose).
For `C=CC(=O)Nc1cc(Nc2nccc(-c3c[nH]c4ccccc34)n2)c(OC)cc1N(C)CCN(C)C`, the recovery was 87.7% (storage stability; human dried blood spots; 72 h, -80 °C, LLOQ level).
For `CCC1CNC(CC)CN(C(C(=O)[O-])c2ccc(C(=O)[O-])cc2)C(CC)CN(CC(=O)[O-])C(CC)CN1.[Mn+2]` (stereo not shown), the Mn content was 0.75 ± 0.18 µg/g (ICP-MS; BALB/c mouse, brain; intravenous, 0.05 mmol/kg, 1440 min, without anaesthesia).
For `CN1CCCNC(=O)c2cccc(c2)C(=O)NCCCN(C)CCCNc2cccc3c2C(=O)c2cccc(c2C3=O)NCCC1`, “blood urea nitrogen” read 23.8 mg/dL and 27.8 mg/dL and 22.7 mg/dL (mouse, serum; dose not given).
For `CCCCN1C(=O)c2cccc3c(NCCN4CCOCC4)ccc(c23)C1=O`, “molar extinction coefficient” read 16000 M⁻¹ cm⁻¹ (water; pH 6.0).
The haemolysis of `Oc1c(Br)cc(Br)c2nc3cc(F)c(F)cc3nc12` is reported as at most 1% (haemolysis; 200 µM).
`CCCC[C@H](OC(C)=O)c1ccccc1C(=O)O` has an AUC(0-inf) of 19700 ± 2810 ng·h/mL (Sprague-Dawley rats, both sexes, whole blood; intravenous, 20 mg/kg single dose).
`C=CC(=O)N1CCCC(n2c(=O)c3ncccc3n(Cc3ccc(Oc4ccccc4)cc3)c2=O)C1` (stereo not shown) gave a plasma concentration of 8.58 µg/mL (BALB/c mice, male, plasma; oral, 200 mg/kg, 2 h).
Under “mean pore diameter”, `CC(=O)N[C@@H](CCCCN)C(=O)N1CCC[C@H]1C(=O)N[C@H](C(=O)N[C@@H](Cc1ccccc1)C(=O)N[C@@H](CCC(N)=O)C(=O)N[C@@H](Cc1ccccc1)C(=O)N[C@@H](CC(C)C)C(=O)N[C@@H](Cc1ccccc1)C(=O)N[C@@H](Cc1c[nH]cn1)C(=O)N[C@@H](CCC(=O)O)C(N)=O)C(C)C` is recorded as 5.6 µm (cryo-EM; hydrogel; pH 7.4).
For `CCC1(CC)CC(=O)N(C2CCOc3ccc(C(=O)NC4CC(C)(C)Oc5ccccc54)cc32)C(=N)N1` (stereo not shown), the hepatocyte CLint was 18.4 µL/min/10⁶ cells (metabolic stability; dog, hepatocytes).
`CC[C@H](C)[C@H](NC(=O)[C@H](CCCCN)NC(=O)[C@H](CCC(=O)O)NC(=O)[C@H](CO)NC(=O)[C@H](Cc1ccccc1)NC(=O)[C@H](CC(C)C)NC(=O)[C@H](CCC(N)=O)NC(=O)[C@H](CO)NC(=O)[C@H](C)NC(=O)[C@H](CCCCN)NC(=O)[C@H](Cc1c[nH]cn1)NC(=O)[C@H](Cc1c[nH]c2ccccc12)NC(=O)[C@H](CCC(N)=O)NC(=O)[C@H](CCCCN)NC(=O)[C@H](CCCCN)NC(=O)[C@H](CC(C)C)NC(=O)CNC(=O)[C@H](C)NC(=O)[C@@H](NC(=O)[C@H](CO)NC(=O)[C@@H](N)CCSC)C(C)C)C(=O)N[C@@H](CO)C(=O)NCC(=O)N[C@@H](C)C(N)=O` has a fractional helicity of 51.7% (circular dichroism; ~60% TFE).
With `O=C1NC2(CC2)COc2ncc(F)cc2[C@H]2COCCN2c2ccn3ncc1c3n2` the PCE/(PCE+NCE) ratio was 0.507 ± 0.06 (bone marrow micronucleus test; NIH mice, male; oral, 20 mg/kg/day, 3 days).
Under “molar extinction coefficient”, `CCCCN1C(=O)c2cccc3c(NCCCN4CCOCC4)ccc(c23)C1=O` is recorded as 10800 M⁻¹ cm⁻¹ (water; pH 6.0).
The tumour-to-brain ratio of `COc1cccc(OC)c1-c1cc(C(=O)NC2(C(=O)O)C3CC4CC(C3)CC2C4)nn1-c1ccc(C(=O)N(C)CCOCCOCCN(C)C(=O)[C@H](CCCCNC(=O)[C@H](CC(C)C)NC(=O)C2OC2C(=O)O)NC(=O)CN2CCN(CC(=O)[O-])CCN(CC(=O)[O-])CCN(CC(=O)[O-])CC2)cc1C(C)C.[177Lu+3]` (mixture of isomers) is reported as 40.6 (mouse, HT-29 xenograft; 168 h post injection, biodistribution; reference: tumour over brain uptake).
`CN([O-])C(=O)CN1CCNCCN(CC(=O)N(C)[O-])CC1.[89Zr+4]` has a tracer uptake of 0.07 %ID/g (mouse, lung; intravenous, 24 h).
`C=C(NC(=O)c1csc(-c2nc3c(cc2O)-c2nc(cs2)C(=O)NC(C(C)O)C(=O)NC(=C(C)OC)c2nc(cs2)C(=O)NC2c4nc(cs4)C(=O)NC(COC(=O)c4c5c6c(cccc6n4O)COC(=O)C(OC4CC(C)(O)C(N(C)C)C(C)O4)C2OC5)c2nc-3cs2)n1)C(N)=O` (stereo not shown) gave an MRT(0-t) of 4.7 h (ICR mice, Streptococcus pneumoniae ATCC 49169 infected, immunocompromised, blood; intravenous, 32 mg/kg/day twice daily).
With `[123I]c1ccc2nc(-c3ccc(-n4ccnn4)nc3)cn2c1` the tracer uptake was 1.1 %ID/g (male Wistar rat, spleen; intravenous, 4 MBq, 5 min).
For `Brc1cccc(CNc2nc(NCc3ccccc3)c3ccccc3n2)c1`, the solubility was 0.25 µg/mL (≈ 0.596 µM) (aqueous buffer; pH 6.2).
`C[C@@H](Nc1c(-c2c(F)cc(C#N)cc2F)c(Cl)nc2ncnn12)C(C)(C)C` — result for organ weight: “no effect” (male PS19 tau transgenic mice; intraperitoneal, 3 mg/kg twice weekly, 3 months; reference: vehicle).
`O=C(NS(=O)(=O)c1cccs1)c1cc2ccccc2n1Cc1ccc(Br)c2ccccc12` has an oral bioavailability of 53.2% (Sprague-Dawley rat, male).

Some of these lines once more:
The tumour-to-brain ratio of `COc1cccc(OC)c1-c1cc(C(=O)NC2(C(=O)O)C3CC4CC(C3)CC2C4)nn1-c1ccc(C(=O)N(C)CCOCCOCCN(C)C(=O)[C@H](CCCCNC(=O)[C@H](CC(C)C)NC(=O)C2OC2C(=O)O)NC(=O)CN2CCN(CC(=O)[O-])CCN(CC(=O)[O-])CCN(CC(=O)[O-])CC2)cc1C(C)C.[177Lu+3]` (mixture of isomers) is reported as 40.6 (mouse, HT-29 xenograft; 168 h post injection, biodistribution; reference: tumour over brain uptake).
`CN([O-])C(=O)CN1CCNCCN(CC(=O)N(C)[O-])CC1.[89Zr+4]` has a tracer uptake of 0.07 %ID/g (mouse, lung; intravenous, 24 h).
`C=C(NC(=O)c1csc(-c2nc3c(cc2O)-c2nc(cs2)C(=O)NC(C(C)O)C(=O)NC(=C(C)OC)c2nc(cs2)C(=O)NC2c4nc(cs4)C(=O)NC(COC(=O)c4c5c6c(cccc6n4O)COC(=O)C(OC4CC(C)(O)C(N(C)C)C(C)O4)C2OC5)c2nc-3cs2)n1)C(N)=O` (stereo not shown) gave an MRT(0-t) of 4.7 h (ICR mice, Streptococcus pneumoniae ATCC 49169 infected, immunocompromised, blood; intravenous, 32 mg/kg/day twice daily).
With `[123I]c1ccc2nc(-c3ccc(-n4ccnn4)nc3)cn2c1` the tracer uptake was 1.1 %ID/g (male Wistar rat, spleen; intravenous, 4 MBq, 5 min).
For `Brc1cccc(CNc2nc(NCc3ccccc3)c3ccccc3n2)c1`, the solubility was 0.25 µg/mL (≈ 0.596 µM) (aqueous buffer; pH 6.2).
